Published values of several laboratories.
Each line is one published result; not all experiments were run side by side.
Target: Serine/threonine-protein kinase SIK2 (SIK2, Homo sapiens, UniProt Q9H0K1)

SMILES | assay | test system | setting | scale | measurement | value
Cc1cnc2nc1Nc1cccc(c1)COC/C=C/COCc1cc(ccc1OCCN1CCOCC1)N2 | binding, competition with immobilised ligand | – | 0.1 µM | – | remaining binding | 86%
CN1CCN(Cc2ccc(-c3ccc(CO[C@H]4CCC[C@@H]4NC(=O)c4cc(-c5cnn(C)c5)cnc4N)cc3)cc2)CC1 | enzyme activity, inhibitor | – | 0.1 µM | – | inhibition | 17%
COc1c(Cl)cccc1Nc1c(-c2ccncc2C#C[C@@]2(C)CCCN2C(=O)/C=C/CN(C)C)[nH]c2c1C(=O)NCC2 | binding, competition with immobilised ligand | – | 3 µM | – | remaining binding | 100%
NC(=O)[C@@H](O)C[C@H]1CCc2sc3ncnc(O[C@H]4CC[C@H](N5CCOCC5)CC4)c3c21 | enzyme activity, inhibitor | – | 10 µM | – | inhibition | 20%
CCN1CCN(Cc2ccc(C(=O)Nc3ccc(C)c(NCc4cnc5[nH]ccc5c4OC)c3)cc2C(F)(F)F)CC1 | binding, competition with immobilised ligand | – | 1 µM | – | remaining binding | 52%
C=CC(=O)Nc1cccc(-c2cnc3[nH]cc(C(=O)NC(C)(C)C)c3n2)c1 | kinase activity | – | 0.1 µM | – | inhibition | 16%
C=CC(=O)N1Cc2nc(-c3cc(-c4cc(Cl)cnc4Cl)c(F)cc3F)n(-c3ccncn3)c2C1 | cell-free assay, inhibitor | – | 1 µM | – | inhibition | 5.6%
Cc1cccc(O[C@H]2CCC[C@@H](C(C)CNCc3ccncc3)C2)c1 (relative stereo) | enzyme activity, inhibitor | – | 1 µM | – | inhibition | 3%
CCN1CCN(Cc2ccc(NC(=O)c3ccc(C)c(NC(=O)c4cncc(-c5cccs5)c4)c3)cc2C(F)(F)F)CC1 | binding, competition with immobilised ligand | – | 1 µM | – | remaining binding | 32%
COc1cc(Nc2nc(C)cc(-c3cnn4nc(OC)ccc34)n2)cc(C(F)(F)F)c1 | binding, competition with immobilised ligand | – | 1 µM | – | remaining binding | 100%
Cc1ccc(C(=O)Nc2ccc(CN3CCN(C)CC3)c(C(F)(F)F)c2)cc1C#Cc1cnc2cccnn12 | target engagement, NanoBRET | human cells | – | – | Hill slope | 0.176
CN1CC[C@@H](COc2cnc(C#N)cc2-c2ccn3nc(NC(=O)C4CC4)cc3c2)C1 | enzyme activity, inhibitor | – | 1 µM | – | inhibition | 101%
C=CC(=O)N1CCc2ccc(-n3c(=O)ccc4cnc5ccc(-c6cnn(C)c6)cc5c43)cc21 | KINOMEscan | – | 1 µM | relative to: DMSO control | remaining binding | 93%
COc1ccc(O)cc1-c1c[nH]c2ncc(-c3cncc(C(=O)N(C)C)c3)cc12 | binding, competition with immobilised ligand | – | 0.2 µM | – | inhibition | 32.4%
Nc1ncc(-c2cc(-c3cnn(CC(F)(F)F)c3)ncc2F)nc1C(=O)NC1CNCC(F)C1 (stereo not drawn) | enzyme activity | – | 1 µM | relative to: DMSO control | remaining activity | 87.1%

A few entries again:
SMILES | assay | test system | setting | scale | measurement | value
CN1CC[C@@H](COc2cnc(C#N)cc2-c2ccn3nc(NC(=O)C4CC4)cc3c2)C1 | enzyme activity, inhibitor | – | 1 µM | – | inhibition | 101%
CCN1CCN(Cc2ccc(C(=O)Nc3ccc(C)c(NCc4cnc5[nH]ccc5c4OC)c3)cc2C(F)(F)F)CC1 | binding, competition with immobilised ligand | – | 1 µM | – | remaining binding | 52%
